Published values from different studies.
Target: Interleukin-1 receptor-associated kinase 3 (IRAK3, Homo sapiens, UniProt Q9Y616)

| SMILES | read-out | action | method | concentration | relative to | endpoint | result |
| --- | --- | --- | --- | --- | --- | --- | --- |
| CNC1C[S+]2CC[S+]3CC[S+](C1)[Ru-4]321([N]=C=S)[n]2c3ccc(OC)cc3c3c4c(c5cc(F)c[n+]1c5c32)C(=O)NC4=O (stereo not shown) | – | – | KinomeScan | 0.1 µM | untreated | remaining binding | 71% |
| COc1cc(Nc2nccc(-c3cnn4nc(OC)ccc34)n2)cc(C(F)(F)F)c1 | binding | – | competition with immobilised ligand | 1 µM | – | remaining binding | 83% |
| CCN1CCN(Cc2ccc(C(=O)Nc3ccc(C)c(NCc4cnc5[nH]ccc5c4OC)c3)cc2C(F)(F)F)CC1 | binding | – | competition with immobilised ligand | 1 µM | – | remaining binding | 100% |
| Cc1ccc(-c2c(/C=C(\C#N)C(=O)NC(C)C)n(CCCO)c3ncnc(N)c23)cc1 | cell-free assay | – | competition with immobilised ligand | 1 µM | – | remaining binding | 34% |
| C=CC(=O)N1CCCC(n2c(=O)c3ncccc3n(Cc3ccc(Oc4ccccc4)cc3)c2=O)C1 (stereo not shown) | cell-free assay | – | competition with immobilised ligand | 1 µM | – | remaining binding | 100% |
| COc1c(Cl)cccc1Nc1c(-c2ccncc2C#C[C@@]2(C)CCCN2C(=O)/C=C/CN(C)C)[nH]c2c1C(=O)NCC2 | binding | – | competition with immobilised ligand | 3 µM | – | remaining binding | 92% |
| Cc1cnc2nc1Nc1cccc(c1)COC/C=C/COCc1cc(ccc1OCCN1CCOCC1)N2 | binding | – | – | 0.1 µM | – | remaining binding | 62% |
| Nc1ncc2c(n1)-c1c([nH]c3ccc(C4=CCOCC4)cc13)CCC2 | binding | – | competition with immobilised ligand | 1 µM | – | remaining binding | 100% |
| C=CC(=O)N1CCc2ccc(-n3c(=O)ccc4cnc5ccc(-c6cnn(C)c6)cc5c43)cc21 | – | – | KINOMEscan | 1 µM | DMSO control | remaining binding | 65% |
| CNC(=O)C1CCN(c2cc(C)c(F)cc2NC(=O)c2ccc(-c3cc(O)ccc3C)c(C)c2)CC1 | binding | – | competition with immobilised ligand | 1 µM | – | remaining binding | 83% |
| CC(C)=CC1OC(C)(C)C2C=C3C(=O)C(Cl)=CC(O)C3C3C(O)C4OC4C(=O)C132 (stereo not shown) | cell-free assay | – | competition with immobilised ligand | 10 µM | – | remaining binding | 93% |
| CN1CCN(Cc2ccc(-c3ccc(CO[C@H]4CCC[C@@H]4NC(=O)c4cc(-c5cnn(C)c5)cnc4N)cc3)cc2)CC1 | enzyme activity | inhibitor | – | 0.1 µM | – | inhibition | 12% |
| C=CC(=O)N1Cc2nc(-c3cc(-c4cc(Cl)cnc4Cl)c(F)cc3F)n(-c3ccncn3)c2C1 | cell-free assay | inhibitor | – | 1 µM | – | inhibition | -1.3% |

A few entries again:
| SMILES | read-out | action | method | concentration | relative to | endpoint | result |
| --- | --- | --- | --- | --- | --- | --- | --- |
| COc1cc(Nc2nccc(-c3cnn4nc(OC)ccc34)n2)cc(C(F)(F)F)c1 | binding | – | competition with immobilised ligand | 1 µM | – | remaining binding | 83% |
